Measured values gathered from unrelated publications.
Protocols differ between the studies behind these lines. ± marks the error that the study gave.
cas9: CRISPR-associated endonuclease Cas9/Csn1 (cas9, Streptococcus pyogenes serotype M1, UniProt Q99ZW2)
SLC6A4: Sodium-dependent serotonin transporter (SLC6A4, Homo sapiens, UniProt P31645)
Chain of UniProt P29350 (whole entry, looked up): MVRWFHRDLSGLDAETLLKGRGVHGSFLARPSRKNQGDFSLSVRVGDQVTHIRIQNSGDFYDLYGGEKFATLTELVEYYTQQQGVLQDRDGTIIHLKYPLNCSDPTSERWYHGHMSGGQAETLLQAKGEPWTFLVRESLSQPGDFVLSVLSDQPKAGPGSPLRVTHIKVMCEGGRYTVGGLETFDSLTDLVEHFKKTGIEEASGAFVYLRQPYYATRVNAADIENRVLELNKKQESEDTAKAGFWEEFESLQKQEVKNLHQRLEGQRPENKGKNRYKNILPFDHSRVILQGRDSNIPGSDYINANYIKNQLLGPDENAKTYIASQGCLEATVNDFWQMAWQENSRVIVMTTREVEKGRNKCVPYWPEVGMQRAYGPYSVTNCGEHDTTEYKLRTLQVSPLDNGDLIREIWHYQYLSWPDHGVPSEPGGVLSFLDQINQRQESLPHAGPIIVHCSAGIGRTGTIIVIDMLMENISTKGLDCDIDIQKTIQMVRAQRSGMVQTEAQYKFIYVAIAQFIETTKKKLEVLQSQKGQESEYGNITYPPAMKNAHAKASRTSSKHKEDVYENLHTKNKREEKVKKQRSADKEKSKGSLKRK
Chain of UniProt O43684 (whole entry, looked up): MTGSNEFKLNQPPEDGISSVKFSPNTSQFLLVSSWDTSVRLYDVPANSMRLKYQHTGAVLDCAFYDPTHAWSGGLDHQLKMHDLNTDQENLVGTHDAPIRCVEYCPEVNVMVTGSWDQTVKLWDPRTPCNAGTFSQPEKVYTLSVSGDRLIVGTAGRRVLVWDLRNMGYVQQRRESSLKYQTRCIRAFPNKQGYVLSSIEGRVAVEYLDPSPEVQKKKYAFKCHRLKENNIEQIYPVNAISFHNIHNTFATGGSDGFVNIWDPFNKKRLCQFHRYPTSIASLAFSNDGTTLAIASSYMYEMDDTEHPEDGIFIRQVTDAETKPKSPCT
Chain of UniProt P0A7E5 (whole entry, looked up): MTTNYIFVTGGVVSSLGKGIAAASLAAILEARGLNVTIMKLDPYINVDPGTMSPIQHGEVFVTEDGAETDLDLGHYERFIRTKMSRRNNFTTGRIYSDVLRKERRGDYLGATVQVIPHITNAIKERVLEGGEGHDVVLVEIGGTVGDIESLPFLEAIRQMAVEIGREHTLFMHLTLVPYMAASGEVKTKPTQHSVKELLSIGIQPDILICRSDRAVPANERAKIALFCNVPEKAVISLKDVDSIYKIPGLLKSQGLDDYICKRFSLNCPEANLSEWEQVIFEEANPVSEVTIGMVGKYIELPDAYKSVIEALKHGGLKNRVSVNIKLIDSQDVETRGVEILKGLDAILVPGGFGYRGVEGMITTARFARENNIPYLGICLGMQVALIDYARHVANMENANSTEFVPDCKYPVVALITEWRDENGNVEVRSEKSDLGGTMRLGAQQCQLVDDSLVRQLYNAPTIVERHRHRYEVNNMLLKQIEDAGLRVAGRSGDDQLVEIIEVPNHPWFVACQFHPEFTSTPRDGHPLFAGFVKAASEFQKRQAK
Chain of UniProt P42338 (whole entry, looked up): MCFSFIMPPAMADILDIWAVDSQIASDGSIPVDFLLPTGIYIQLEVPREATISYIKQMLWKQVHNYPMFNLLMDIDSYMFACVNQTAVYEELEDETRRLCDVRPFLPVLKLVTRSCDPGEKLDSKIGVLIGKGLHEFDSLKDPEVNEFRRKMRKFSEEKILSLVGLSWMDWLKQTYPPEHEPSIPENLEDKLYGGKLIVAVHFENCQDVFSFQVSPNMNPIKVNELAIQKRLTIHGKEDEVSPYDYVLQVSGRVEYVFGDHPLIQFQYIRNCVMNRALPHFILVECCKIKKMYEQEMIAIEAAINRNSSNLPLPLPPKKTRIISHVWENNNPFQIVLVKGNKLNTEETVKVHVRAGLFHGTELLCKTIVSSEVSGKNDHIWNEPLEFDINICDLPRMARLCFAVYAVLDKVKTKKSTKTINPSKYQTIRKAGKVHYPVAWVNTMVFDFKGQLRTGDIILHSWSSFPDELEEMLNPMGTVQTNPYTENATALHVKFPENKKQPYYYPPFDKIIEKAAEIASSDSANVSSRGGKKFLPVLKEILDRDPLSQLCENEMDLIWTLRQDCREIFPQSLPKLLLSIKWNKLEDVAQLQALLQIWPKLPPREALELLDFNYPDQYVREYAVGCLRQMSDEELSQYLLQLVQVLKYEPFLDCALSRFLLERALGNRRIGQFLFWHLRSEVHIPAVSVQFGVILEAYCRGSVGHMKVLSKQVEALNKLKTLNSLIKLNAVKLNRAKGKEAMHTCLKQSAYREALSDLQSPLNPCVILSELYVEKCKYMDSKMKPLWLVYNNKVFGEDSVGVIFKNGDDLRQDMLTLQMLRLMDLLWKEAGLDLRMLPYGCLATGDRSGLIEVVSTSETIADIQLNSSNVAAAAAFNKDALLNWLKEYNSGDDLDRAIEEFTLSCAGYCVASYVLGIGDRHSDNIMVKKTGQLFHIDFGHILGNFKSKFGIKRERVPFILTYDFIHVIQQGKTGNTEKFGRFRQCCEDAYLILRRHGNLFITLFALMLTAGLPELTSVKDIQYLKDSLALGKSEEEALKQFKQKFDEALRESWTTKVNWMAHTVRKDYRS
Chain of UniProt Q9UGM1 (whole entry, looked up): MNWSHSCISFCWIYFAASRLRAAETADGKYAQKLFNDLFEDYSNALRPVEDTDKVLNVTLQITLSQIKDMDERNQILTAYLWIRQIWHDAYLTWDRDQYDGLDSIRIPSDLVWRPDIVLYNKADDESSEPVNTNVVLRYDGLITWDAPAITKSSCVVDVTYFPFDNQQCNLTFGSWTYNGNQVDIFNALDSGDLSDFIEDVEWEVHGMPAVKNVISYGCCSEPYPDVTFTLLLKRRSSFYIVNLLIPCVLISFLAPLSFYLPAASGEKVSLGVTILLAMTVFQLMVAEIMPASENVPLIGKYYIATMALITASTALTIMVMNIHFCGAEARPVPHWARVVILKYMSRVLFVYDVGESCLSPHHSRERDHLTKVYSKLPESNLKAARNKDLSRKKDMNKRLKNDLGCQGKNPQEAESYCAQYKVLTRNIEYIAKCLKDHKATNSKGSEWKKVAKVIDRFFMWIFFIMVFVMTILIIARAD
Chain of UniProt P22303 (whole entry, looked up): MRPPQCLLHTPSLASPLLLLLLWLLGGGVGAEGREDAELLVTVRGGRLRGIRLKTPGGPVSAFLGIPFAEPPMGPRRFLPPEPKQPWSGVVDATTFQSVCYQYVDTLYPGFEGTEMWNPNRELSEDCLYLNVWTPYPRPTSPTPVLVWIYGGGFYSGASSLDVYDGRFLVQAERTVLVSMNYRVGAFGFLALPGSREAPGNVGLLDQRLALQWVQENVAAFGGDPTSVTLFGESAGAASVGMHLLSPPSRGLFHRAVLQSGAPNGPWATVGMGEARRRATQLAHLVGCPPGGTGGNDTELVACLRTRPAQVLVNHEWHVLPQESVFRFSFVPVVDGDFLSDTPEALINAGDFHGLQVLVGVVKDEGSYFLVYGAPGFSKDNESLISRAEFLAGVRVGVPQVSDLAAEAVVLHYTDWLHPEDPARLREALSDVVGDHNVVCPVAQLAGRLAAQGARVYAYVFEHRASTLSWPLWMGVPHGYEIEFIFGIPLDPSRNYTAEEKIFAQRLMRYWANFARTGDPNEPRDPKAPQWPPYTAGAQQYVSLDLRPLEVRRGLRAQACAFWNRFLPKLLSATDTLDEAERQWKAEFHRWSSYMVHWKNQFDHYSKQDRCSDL
Chain of UniProt P07384 (whole entry, looked up): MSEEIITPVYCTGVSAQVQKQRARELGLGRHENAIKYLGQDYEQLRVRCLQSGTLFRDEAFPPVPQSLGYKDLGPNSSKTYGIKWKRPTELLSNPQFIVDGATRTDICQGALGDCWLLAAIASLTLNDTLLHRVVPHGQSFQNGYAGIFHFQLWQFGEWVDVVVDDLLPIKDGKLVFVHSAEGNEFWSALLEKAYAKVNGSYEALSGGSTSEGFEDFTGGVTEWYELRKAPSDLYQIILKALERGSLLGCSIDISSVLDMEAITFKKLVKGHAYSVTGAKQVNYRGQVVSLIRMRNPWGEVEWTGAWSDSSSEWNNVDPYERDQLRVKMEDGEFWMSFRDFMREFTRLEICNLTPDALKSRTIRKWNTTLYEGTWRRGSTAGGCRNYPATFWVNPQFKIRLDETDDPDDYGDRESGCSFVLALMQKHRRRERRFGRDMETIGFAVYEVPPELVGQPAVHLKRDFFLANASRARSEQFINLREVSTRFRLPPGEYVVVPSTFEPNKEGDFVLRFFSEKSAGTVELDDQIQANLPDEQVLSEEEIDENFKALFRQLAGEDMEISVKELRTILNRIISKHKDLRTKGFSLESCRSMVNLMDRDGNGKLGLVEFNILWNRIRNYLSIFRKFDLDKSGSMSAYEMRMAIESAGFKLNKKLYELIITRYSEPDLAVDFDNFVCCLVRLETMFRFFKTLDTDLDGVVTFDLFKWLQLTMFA
Chain of UniProt P20813 (whole entry, looked up): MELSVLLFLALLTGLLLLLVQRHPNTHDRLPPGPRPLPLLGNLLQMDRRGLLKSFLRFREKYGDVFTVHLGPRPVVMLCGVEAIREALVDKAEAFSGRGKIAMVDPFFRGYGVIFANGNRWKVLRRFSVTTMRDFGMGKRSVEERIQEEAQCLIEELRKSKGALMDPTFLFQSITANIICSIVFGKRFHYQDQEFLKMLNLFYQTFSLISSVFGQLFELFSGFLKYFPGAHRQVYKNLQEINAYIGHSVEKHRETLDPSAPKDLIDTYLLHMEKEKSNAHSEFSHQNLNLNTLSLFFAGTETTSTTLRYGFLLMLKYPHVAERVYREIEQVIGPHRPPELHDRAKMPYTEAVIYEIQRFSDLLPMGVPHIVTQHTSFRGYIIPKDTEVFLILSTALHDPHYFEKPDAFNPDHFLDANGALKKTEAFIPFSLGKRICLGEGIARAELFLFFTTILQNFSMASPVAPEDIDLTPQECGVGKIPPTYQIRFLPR

With CC[C@H](C)[C@H](NC(=O)[C@H](Cc1ccccc1)NC(=O)[C@H](CCC(=O)O)NC(=O)[C@H](CCCNC(=N)N)NC(=O)[C@H](C)NC(=O)[C@H](C)NC(=O)[C@H](CCC(N)=O)NC(=O)[C@H](CCC(=O)O)NC(=O)[C@H](CCC(=O)O)NC(=O)[C@H](CC(C)C)NC(=O)[C@H](Cc1ccc(O)cc1)NC(=O)[C@H](CO)NC(=O)[C@H](CO)NC(=O)[C@@H](NC(=O)[C@H](CC(=O)O)NC(=O)[C@H](CO)NC(=O)[C@@H](NC(=O)[C@H](Cc1ccccc1)NC(=O)[C@@H](NC(=O)CNC(=O)[C@H](CCC(=O)O)NC(=O)[C@H](C)NC(=O)CCc1c[nH]cn1)[C@@H](C)O)[C@@H](C)O)C(C)C)C(=O)N[C@@H](C)C(=O)N[C@@H](Cc1c[nH]c2ccccc12)C(=O)N[C@@H](CC(C)C)C(=O)N[C@H](C(=O)N[C@@H](CCCNC(=N)N)C(=O)NCC(=O)N[C@@H](CCCNC(=N)N)C(=O)N[C@@H](CCCCNC(=O)COCCOCCNC(=O)COCCOCCNC(=O)CC[C@H](NC(=O)CCCCCCCCCCCCCCCCC(=O)O)C(=O)O)C(=O)NCC(=O)NCC(=O)N[C@@H](CO)C(=O)N[C@@H](CCCCNc1c(NCCCCCN(O)C(=O)CCC(=O)NCCCCCN(O)C(=O)CCC(=O)NCCCCCN(O)C(C)=O)c(=O)c1=O)C(=O)O)C(C)C [zirconium-89 labelled] the tissue uptake was 0.07 %ID/g (rat, muscle; iv, 3 nmol/kg, 24 h, ex vivo).
The IC50 of CSCC[C@H](NC(=O)[C@@H](NC(=O)[C@@H](NC(=O)[C@H](CC(C)C)NC(=O)[C@H](CC(N)=O)NC(=O)[C@H](CC(N)=O)NC(=O)[C@@H](NC(=O)[C@H](C)NC(=O)[C@@H](N)CC(C)C)[C@@H](C)O)C(C)C)C(C)C)C(=O)O is reported as over 70 µM (HLA class I histocompatibility antigen, B alpha chain, allele B*18:01 (Homo sapiens, UniProt P01889); peptide-MHC binding, radioligand competition binding).
COc1cc(Nc2ncc(F)c(Nc3ccc4c(n3)NC(=O)C(C)(C)O4)n2)cc(OC)c1OC gave an IC50 of over 10 µM (PTPN6 (Homo sapiens, UniProt P29350); enzyme activity, inhibitor).
The IC50 of CN(C)C(=O)C(CCN1CCC(O)(c2ccc(Cl)cc2)CC1)(c1ccccc1)c1ccccc1 is reported as 2.06 ± 0.35 µM (Calcium-activated potassium channel subunit alpha-1, with LRRC26 γ1 subunit (KCNMA1, Homo sapiens, UniProt Q12791); BK channel conductance, inhibitor, inside-out patch clamp; BKα/γ1, Vm 80 mV, nominally Ca2+-free).
COc1cc2c(Oc3ccc4[nH]c(C)cc4c3F)ccnc2cc1OCC1(N)CC1: “grade 3 Appendicitis” 0% (paediatric recurrent refractory sarcoma; 8 mg).
For CN1CCN(c2cc(-c3ccncc3)c(-c3ccc4ccccc4c3)nn2)CC1, the inhibition was 8.7% (S1PR2 (Homo sapiens, UniProt O95136); antagonist, FLIPR; 10 µM).
With Nc1c2c(nc3c1C(c1cccc([N+](=O)[O-])c1)c1ccc(OS(=O)(=O)c4ccccc4)cc1O3)CCCC2 (stereo not shown) the IC50 was 5.51 µM (ACHE (Homo sapiens, UniProt P22303); enzyme activity, inhibitor).
With COc1ccc(N2C(=O)N(c3c(C)cccc3Cl)Cc3cnc(Nc4ccc(C5CCN(C)CC5)cc4OC)nc32)nc1 the inhibition was 8% (PIK3CB (Homo sapiens, UniProt P42338); kinase activity, inhibitor; 0.5 µM, kinase PI3K-BETA).
CC[C@H](C)[C@@H]1NC(=O)[C@@H]2CCCN2C(=O)[C@H](CC(C)C)NC(=O)[C@H](CC(C)C)NC(=O)CNC(=O)[C@@H](NC(=O)[C@@H](NC(=O)[C@H](CC(=O)O)NC(=O)CNC(=O)[C@@H](NC(=O)[C@H](C)NC(=O)CNC(=O)[C@H](CCCCN)NC(=O)[C@H](CC(C)C)NC(=O)[C@H](CC(C)C)NC(=O)[C@H](CCCCN)NC(=O)CNC(=O)[C@@H](NC(=O)[C@@H](N)CC(C)C)C(C)C)C(C)C)C(C)C)CSSC[C@@H](C(=O)O)NC1=O: “log2 fold change” -1.42 (RNA-seq, item: Ubald2; mouse, traumatic brain injury model, frontal cortex and hippocampus; dose not given; relative to: TBI alone).
For N.N.[Cl][Pt][Cl], the IC50 was 100 to 200 µM (cas9; circular plasmid substrate; Streptococcus pyogenes).
CCC(C(=O)Nc1cc(NC2CCNC2)ccc1C)n1cc(Br)cc2nc(SCc3ccc(F)cc3)nc1-2 (stereo not shown) gave an IC50 of over 100 µM (CAPN1 (Homo sapiens, UniProt P07384); enzyme activity).
CNC(C)Cc1ccc2nsnc2c1 (stereo not shown) gave an IC50 of 6.4 ± 1 µM (SLC6A4).
With COc1ccc(CCNCC(O)COc2cccc(C)c2)cc1OC (stereo not shown) the IC50 was 3 µM (SLC6A4; inhibitor).
C[C@H]1CN(c2n[nH]c3nc(N[C@H]4CC[C@H](NS(=O)(=O)CCC(F)(F)F)CC4)ncc23)CCO1 gave an IC50 of at least 20 µM (Mitotic checkpoint protein BUB3 (Homo sapiens, UniProt O43684); biochemical).
With C[C@]1(CO)Cc2ncn(-c3ccc(C#N)c(Cl)c3)c2C(=O)O1 the half-life was 6 h (healthy Japanese adults, plasma; 40 mg once daily, after first dose, multiple dose).
For CO[C@H]1C[C@@H]2CC[C@@H](C)[C@@](O)(O2)C(=O)C(=O)N2CCCC[C@H]2C(=O)O[C@H]([C@H](C)C[C@@H]2CC[C@@H](OC(=O)NCCOCCOCCOCCOCCOCCOCCOCCOCCC(=O)N3CCc4cc(Cn5nc(-c6ccc7oc(N)nc7c6)c6c(N)ncnc65)ccc4C3)[C@H](OC)C2)C[C@@H](O)[C@H](C)/C=C(\C)[C@@H](O)[C@@H](OC)C(=O)[C@H](C)C[C@H](C)/C=C/C=C/C=C/1C, “incidence of Constipation TEAE” read 0% (patients with advanced solid tumours; intravenous, dose not given, grade ≥3).
O=C1c2ccccc2C(=O)C1C(=O)C(c1ccccc1)c1ccccc1 gave an IC50 of 11.3 ± 2.61 µM (Bile acid receptor (NR1H4, Homo sapiens, UniProt Q96RI1); receptor activity, inhibitor; cells).
For CCN1CCN(Cc2ccc(Nc3nc4cc(Oc5ccnc(NC(=O)C6CCN(C)CC6)c5)ccc4n3C)cc2C(F)(F)F)CC1, the IC50 was 1.7 ± 0.5 µM (Protein kinase 6 (Plasmodium falciparum, UniProt Q8IDW1); enzyme activity, inhibitor).
CS[C@H]1SC[C@H]2C(=O)N(C)[C@@H](C(C)C)C(=O)OC[C@@H](NC(=O)c3cnc4ccccc4n3)C(=O)N[C@@H](C)C(=O)N(C)[C@@H]1C(=O)N(C)[C@@H](C(C)C)C(=O)OC[C@@H](NC(=O)c1cnc3ccccc3n1)C(=O)N[C@@H](C)C(=O)N2C gave an IC50 of 100 to 200 µM (cas9; circular plasmid substrate; Streptococcus pyogenes).
COc1cccc(N(C)C(=S)Oc2ccc3c(c2)CCCC3)n1 gave an IC50 of 2.19 µM (Cytochrome P450 2B6 (CYP2B6, Homo sapiens, UniProt P20813); inhibitor; 20 min).
With Nc1ccn([C@@H]2O[C@H](COP(=O)(O)OP(=O)(O)OP(=O)(O)O)[C@@H](O)[C@H]2O)c(=O)n1 the IC50 was 234 µM (pyrG (Escherichia coli, UniProt P0A7E5); enzyme activity; with: 6.0 mM glutamine, 1.0 mM ATP, 0.20 mM UTP).
CNCC[C@H](Oc1cccc2ccccc12)c1cccs1 has an IC50 of 1.08 ± 0.41 µM (Neuronal acetylcholine receptor; alpha9/alpha10 (Homo sapiens, UniProt Q9GZZ6+Q9UGM1); inhibitor).

For quick reference, copied from above:
With Nc1ccn([C@@H]2O[C@H](COP(=O)(O)OP(=O)(O)OP(=O)(O)O)[C@@H](O)[C@H]2O)c(=O)n1 the IC50 was 234 µM (pyrG (Escherichia coli, UniProt P0A7E5); enzyme activity; with: 6.0 mM glutamine, 1.0 mM ATP, 0.20 mM UTP).
CNCC[C@H](Oc1cccc2ccccc12)c1cccs1 has an IC50 of 1.08 ± 0.41 µM (Neuronal acetylcholine receptor; alpha9/alpha10 (Homo sapiens, UniProt Q9GZZ6+Q9UGM1); inhibitor).
